Assay results gathered from unrelated publications.
± gives the spread as reported.

With Cc1nc(-c2ccc(OCC(C)C)c(C#N)c2)sc1C(=O)O the Tmax was 1.5 h (healthy men, plasma; oral, 80 mg once daily, day 7 or 21, median).
CC(=O)Nc1ccc(O)cc1 has a Tmax of 0.84 h (healthy volunteers, both sexes, plasma; oral, 650 mg, day 2, added: favipiravir, acute).
The Tmax of CC1=C2C[C@H]3[C@@H](CC[C@@H]4C[C@H](NS(C)(=O)=O)CC[C@@]43C)[C@@H]2CC[C@@]2(C1)O[C@@H]1C[C@H](C)CN[C@H]1[C@H]2C is reported as 6 h (patients, plasma; oral, 20 mg single, day -7, cycle 1).
COc1ccc2c3c1O[C@H]1C[C@@H](OC(=O)c4ccccc4)C=C[C@@]31CCN(C)C2 gave a Tmax of 0.59 h (healthy elderly men, plasma; intranasal, 33 mg, single dose).
For Nc1ncc(-c2cnn(CCO)c2)c2scc(-c3ccc(NC(=O)Nc4cccc(F)c4)cc3)c12, the Tmax was 22.7 ± 7.2 h (patients, plasma; oral, 320 mg twice weekly, day 1).
C[C@@H](N)c1cc(Cl)ccc1Cn1c(=S)[nH]c(=O)c2[nH]ccc21 gave a Tmax of 2 h (healthy Japanese volunteers, plasma; oral, 5 mg once daily, day 10, median).
CO/N=C1\C[C@]2(C[C@@H]3C[C@@H](C/C=C(\C)C[C@@H](C)/C=C/C=C4\CO[C@@H]5[C@H](O)C(C)=C[C@@H](C(=O)O3)[C@]45O)O2)O[C@H](/C(C)=C/C(C)C)[C@H]1C gave a Tmax of 19 ± 2.16 h (HPLC, non-compartmental; Corriedale lambs, parasitized, plasma; oral, 0.2 mg/kg).
CNCc1ccc(-c2[nH]c3cc(F)cc4c3c2CCNC4=O)cc1 has a Tmax of 3 ± 1.3 h (noncompartmental analysis; patients, plasma; oral, 400 mg, day 21, added: bevacizumab).
For COc1cc(OC)c(/C=C/S(=O)(=O)Cc2ccc(OC)c(NCC(=O)O)c2)c(OC)c1, the Tmax was 0.88 ± 0.25 h (cancer patients, phase I, plasma; oral, 140 mg twice daily, day 21 cycle 1).
The Tmax of CCCOc1ccc([C@H]2CNC(=O)N2c2ccc3[nH]cnc3c2)cc1 is reported as 0.5 h (non-elderly adults, fasted, plasma; oral, 20 mg twice daily, day 11, oral solution, median).
The Tmax of NC(=O)c1cnc2[nH]ccc2c1N[C@@H]1[C@@H]2CC3C[C@H]1C[C@@](O)(C3)C2 is reported as 1.47 h (Japanese, mild hepatic impairment, plasma; oral, 150 mg single dose, median).
NC(=O)c1cnc2[nH]ccc2c1N[C@@H]1[C@@H]2CC3C[C@H]1C[C@@](O)(C3)C2 has a Tmax of 1.8 h (healthy Caucasian men, plasma; oral, 200 mg, single dose fasted median).
For CC(=O)Nc1cccc(-n2c(=O)n(C3CC3)c(=O)c3c(Nc4ccc(I)cc4F)n(C)c(=O)c(C)c32)c1, the Tmax was roughly 1 h (Japanese patients, plasma; oral, 2 mg once daily, repeat dosing, median, added: dabrafenib 150 mg twice daily).
The Tmax of CC(=O)Nc1ccc(O[C@@H]2O[C@H](C(=O)O)[C@@H](O)[C@H](O)[C@H]2O)cc1 is reported as 2.1 h (healthy volunteers, both sexes, plasma; oral, 650 mg acetaminophen, day 6, added: favipiravir, extended).
For C[C@H]1CN(C(=O)CC#N)[C@]12CCN(c1ncnc3[nH]ccc13)C2, the Tmax was 4 h (atopic dermatitis patients, plasma; topical, 5 g of 3% ointment twice daily, day 7 morning, median).
N[C@]1(C(=O)O)[C@H]2[C@@H](C[C@@H]1F)[C@@H]2C(=O)O gave a Tmax of 4 h (healthy subjects, both sexes, plasma; oral, 10 mg TS-134 single dose, fed, median).
For C[C@@H](O)[C@H]1C(=O)N2C(C(=O)O)=C(S[C@@H]3CN[C@H](C(=O)N(C)C)C3)[C@H](C)[C@H]12, the Tmax was 1.57 h (microdialysis; pig (Danish Landrace), cortical bone; iv infusion, 1000 mg over 10 min, added: vancomycin co-administered).
The Tmax of Cc1ccc(NC(=O)c2ccc(CN3CCN(C)CC3)cc2)cc1Nc1nccc(-c2cncc(-c3oncc3C)c2)n1 is reported as 4.41 h (Parkinson's disease patients, plasma; oral, 100 mg once daily, day 7, 7-day dosing, mean).
With CS(=O)(=O)n1cc2c(n1)CN([C@H]1CO[C@H](c3cc(F)ccc3F)[C@@H](N)C1)C2 the Tmax was 2 h (healthy Japanese men, plasma; oral, 1 mg once weekly, day 15).
The Tmax of CS(=O)(=O)c1ccc([C@@H](O)[C@@H](CF)NC(=O)C(Cl)Cl)cc1 is reported as 0.79 ± 0.1 h (chicken, HY-Line Brown hens, plasma; oral, 20 mg/kg).
The Tmax of C[C@]12C=CC(=O)C=C1CC[C@@H]1[C@@H]2[C@@H](O)C[C@@]2(C)[C@H]1C[C@H]1O[C@@H](C3CCCCC3)O[C@]12C(=O)CO is reported as 0.69 ± 0.044 h (children with asthma, serum; inhaled, 160 µg ciclesonide, day 7, HFA-MDI with spacer).
The Tmax of C[C@@H](Oc1ccc(S(C)(=O)=O)cc1C(=O)N1C[C@@H]2C[C@]2(c2cc(C(F)(F)F)on2)C1)C(F)(F)F is reported as 2.5 h (healthy male volunteers, plasma; oral, 25 mg, median, added: itraconazole).
COc1cc2c(cc1OC)CN(CCc1ccc(NC(=O)c3cc(OC)c(OC)cc3NC(=O)c3cnc4ccccc4c3)cc1)CC2 gave a Tmax of 2.82 h (human, plasma; intravenous infusion, 8 mg/kg).
With CCCN1CC(c2ccc(S(C)(=O)=O)cc2)=C(c2ccc(C)cc2)C1=O the Tmax was 2 h (healthy Chinese, elderly, plasma; oral, 100 mg, fasting).
For CC(C)=CCC[C@](C)(O[C@@H]1O[C@H](CO)[C@@H](O)[C@H](O)[C@H]1O)[C@H]1CC[C@]2(C)[C@@H]1[C@H](O)C[C@@H]1[C@@]3(C)CC[C@H](O[C@@H]4O[C@H](CO)[C@@H](O)[C@H](O)[C@H]4O)C(C)(C)[C@@H]3CC[C@]12C, the Tmax was 10.8 ± 3.28 h (LC-MS/MS; healthy volunteers, serum; oral, 3 g fermented red ginseng).
The Tmax of CN1CC[C@@H](NC(=O)Nc2ccc(C#N)cc2)C[C@@H]1c1nc2ccccc2[nH]1 is reported as 2 h (Japanese patients; oral, 100 mg once daily, cycle 1 day 21, median).
For Cc1ccc(Sc2ccccc2N2CCNCC2)c(C)c1, the Tmax was 9 h (healthy men, plasma; oral, 20 mg once daily, fed, day 1).
The Tmax of O=C1CCc2ccc(OCCCCN3CCN(c4cccc(Cl)c4Cl)CC3)cc2N1 is reported as 3 ± 1.8 h (healthy Japanese men, CYP2D6 IM, plasma; oral, 3 mg aripiprazole single, added: fluvoxamine 100 mg/day).
The Tmax of CC(C)=CCC[C@](C)(O[C@@H]1O[C@H](CO)[C@@H](O)[C@H](O)[C@H]1O)[C@H]1CC[C@]2(C)[C@@H]1[C@H](O)C[C@@H]1[C@@]3(C)CC[C@H](O[C@@H]4O[C@H](CO)[C@@H](O)[C@H](O)[C@H]4O[C@@H]4O[C@H](CO)[C@@H](O)[C@H](O)[C@H]4O)C(C)(C)[C@@H]3CC[C@]12C is reported as 10.5 ± 3.88 h (LC-MS/MS; healthy volunteers, serum; oral, 3 g fermented red ginseng).
NS(=O)(=O)c1cc(Cl)c(Cl)c(S(N)(=O)=O)c1 has a Tmax of 2.5 h (healthy volunteers, plasma; oral, 50 mg, single dose, median).
CC(C)(Sc1ccncc1-c1ccc(C#N)c2ccccc12)C(=O)O gave a Tmax of 2.5 h (male, plasma; oral, 15 mg, mild renal impairment, fasted).
The Tmax of CO[C@H]1C[C@@H]2CC[C@@H](C)[C@@](O)(O2)C(=O)C(=O)N2CCCC[C@H]2C(=O)O[C@H]([C@H](C)C[C@@H]2CC[C@@H](OP(C)(C)=O)[C@H](OC)C2)CC(=O)[C@H](C)/C=C(\C)[C@@H](O)[C@@H](OC)C(=O)[C@H](C)C[C@H](C)/C=C/C=C/C=C/1C is reported as 4 h (HPLC-MS/MS; Japanese patients, whole blood; oral, 40 mg, day 1, cycle 1, median).
CN[C@H](CC(C)C)C(=O)N[C@H]1C(=O)N[C@@H](CC(N)=O)C(=O)N[C@H]2C(=O)N[C@H]3C(=O)N[C@H](C(=O)N[C@H](C(=O)O)c4cc(O)cc(O)c4-c4cc3ccc4O)[C@H](O)c3ccc(c(Cl)c3)Oc3cc2cc(c3O[C@@H]2O[C@H](CO)[C@@H](O)[C@H](O)[C@H]2O[C@H]2C[C@](C)(N)[C@H](O)[C@H](C)O2)Oc2ccc(cc2Cl)[C@H]1O has a Tmax of 3.63 h (microdialysis; pig (Danish Landrace), cancellous bone; iv infusion, 1000 mg over 100 min, added: meropenem co-administered).
Cc1ccc(-c2ncc(Cl)cc2-c2ccc(S(C)(=O)=O)cc2)cn1 has a Tmax of 1 h (patients after hip surgery, plasma; oral, 120 mg).
With CCOc1ccc(Cc2cc([C@@H]3S[C@H](CO)[C@@H](O)[C@H](O)[C@H]3O)c(OC)cc2C)cc1 the Tmax was 0.5 h (Japanese type 2 diabetes patients, plasma; oral, 5 mg single dose, eGFR 45-59 mL/min/1.73 m^2, median).
